Assay results of several laboratories.
Numbered parts are unrelated; each lists some results of a single study. “And” joins repeats or separate records; there may be more than shown.

Study 1 — read-out: enzyme activity; mode: inhibitor; tested at: 10 µM
Target: Calcium/calmodulin-dependent protein kinase type II subunit alpha (CAMK2A, Homo sapiens, UniProt Q9UQM7)
CN(C)CCC[C@@]1(c2ccc(F)cc2)OCc2cc(C#N)ccc21 gave an inhibition of -12%.
With CCCOc1ccc2c(c1)CC[C@@H]1[C@@H]2CC[C@]2(C)[C@@H](OC)CC[C@@H]12 the inhibition was 13%.
With C[N+]1(C)CCC[C@H]1C(=O)O the inhibition was 29%.
With COc1ccc(C2COc3cc(O)ccc3C2)c(O)c1OC (stereo not shown) the inhibition was -20%.

Study 2 — mode: inhibitor; tested at: 10 µM; reference: control
Target: Diamine acetyltransferase 1 (Homo sapiens, UniProt P21673)
Target sequence (P21673 1-171): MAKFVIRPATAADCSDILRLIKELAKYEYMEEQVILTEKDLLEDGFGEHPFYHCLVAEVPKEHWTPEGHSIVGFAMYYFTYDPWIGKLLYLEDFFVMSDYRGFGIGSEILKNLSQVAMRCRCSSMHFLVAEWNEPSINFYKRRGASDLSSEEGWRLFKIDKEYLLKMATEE
For CC(C)=CCc1cc(-c2coc3cc(O)cc(O)c3c2=O)cc(O)c1O, the remaining activity was 112%.
Cc1ccc(C(C)C)cc1O has a remaining activity of 93%.
For CC(C)CCC[C@@H](C)[C@H]1CC[C@H]2C3=CC[C@H]4C[C@@H](O)CC[C@]4(C)[C@H]3CC[C@]12C, the remaining activity was 104%.
The remaining activity of CC(=O)OC[C@@H](COC(=O)/C=C/c1ccc(O)cc1)OC1OC(CO)C(O)C(O)C1O (stereo partly shown) is reported as 78.2%.
OCc1cccnc1 has a remaining activity of 92.5%.

Study 3 — technique: competition with immobilised ligand; tested at: 1 µM
Structure (SMILES): Cc1nc(Cc2cccc(C(F)(F)F)c2)sc1-c1ccc(C(N)=O)nc1
PIKFYVE (Homo sapiens, UniProt Q9Y2I7); cell-free assay — remaining binding: 75%.
It gave 87% for remaining binding (MAP4K5 (Homo sapiens, UniProt Q9Y4K4); cell-free assay).
For FES (Homo sapiens, UniProt P07332); cell-free assay: remaining binding read 99%.
It gave 68% for remaining binding (EPHA2 (Homo sapiens, UniProt P29317); cell-free assay).
The remaining binding was 95% (PTK2 (Homo sapiens, UniProt Q05397); cell-free assay).
CDKL3 (Homo sapiens, UniProt Q8IVW4); binding — remaining binding: 100%.
The remaining binding was 100% (FLT4 (Homo sapiens, UniProt P35916); cell-free assay).
The remaining binding was 85% (CSF1R (Homo sapiens, UniProt P07333); cell-free assay).
The remaining binding was 82% (PIK3C2B (Homo sapiens, UniProt O00750); cell-free assay).
MAP3K14 (Homo sapiens, UniProt Q99558); cell-free assay — remaining binding: 100%.
For KIT (Homo sapiens, UniProt P10721, V559D/V654A); cell-free assay: remaining binding read 83%.
For RET (Homo sapiens, UniProt P07949, V804M); cell-free assay: remaining binding read 88%.
The remaining binding was 95% (ANKK1 (Homo sapiens, UniProt Q8NFD2); cell-free assay).
For CAMK2A (Homo sapiens, UniProt Q9UQM7); cell-free assay: remaining binding read 91%.
PIK3CA (Homo sapiens, UniProt P42336, H1047L); cell-free assay — remaining binding: 72%.
The remaining binding was 65% (CIT (Homo sapiens, UniProt O14578); cell-free assay).
For MYLK (Homo sapiens, UniProt Q15746); cell-free assay: remaining binding read 95%.
It gave 95% for remaining binding (Tyrosine-protein kinase ABL1, non-phosphorylated (ABL1, Homo sapiens, UniProt P00519); cell-free assay).
For SRMS (Homo sapiens, UniProt Q9H3Y6); cell-free assay: remaining binding read 77%.
For STK4 (Homo sapiens, UniProt Q13043); cell-free assay: remaining binding read 100%.
For TNIK (Homo sapiens, UniProt Q9UKE5); cell-free assay: remaining binding read 100%.
The remaining binding was 98% (MERTK (Homo sapiens, UniProt Q12866); cell-free assay).
It gave 100% for remaining binding (CHEK1 (Homo sapiens, UniProt O14757); cell-free assay).
It gave 98% for remaining binding (PKN1 (Homo sapiens, UniProt Q16512); cell-free assay).
The remaining binding was 41% (NEK1 (Homo sapiens, UniProt Q96PY6); binding).

Study 4 — organism: Sarcocystis neurona; read-out: parasite growth; tested at: 10 µM
The inhibition of C[C@@H](O)[C@H]1C(=O)N2C(C(=O)O)=C(S[C@@H]3CN[C@H](C(=O)N(C)C)C3)[C@H](C)[C@H]12 is reported as -20.1%.
For Cc1cn([C@H]2C[C@H](N=[N+]=[N-])[C@@H](CO)O2)c(=O)[nH]c1=O, the inhibition was -20.5%.
With CCC(=O)O[C@]1(C(=O)CCl)[C@@H](C)C[C@H]2[C@@H]3CCC4=CC(=O)C=C[C@]4(C)[C@@]3(F)[C@@H](O)C[C@@]21C the inhibition was 5.5%.
The inhibition of O=c1c(-c2ccccc2)c1-c1ccccc1 is reported as 60%.
O=C(c1ccc(F)cc1)C1CCN(CCn2c(=S)[nH]c3ccccc3c2=O)CC1 gave an inhibition of 81.9%.
CCCN(CCC)S(=O)(=O)c1ccc(C(=O)O)cc1 gave an inhibition of -26.8%.

Study 5 — cell line: mouse MPNST tumor cells; technique: high-content immunofluorescence imaging; item: nuclear SOX9; tested at: 10 µM; time: 12 h; setting: mean of 2 replicates; reference: DMSO control; reading: higher = more nuclear SOX9
For NS(=O)(=O)c1cc(C(=O)O)cc(N2CCCC2)c1Oc1ccccc1, “nuclear SOX9 intensity” read 91.6 % of DMSO.
COc1ccc(Cl)cc1[C@]1(F)C(=O)Nc2cc(C(F)(F)F)ccc21: “nuclear SOX9 intensity” 115 % of DMSO.
Cc1ccc(NC(=O)c2cccc(N(C)C)c2)cc1NC(=O)c1ccc(O)cc1: “nuclear SOX9 intensity” 127 % of DMSO.
N#Cc1cccc(-c2c[nH]c3ncnc(N4CCOCC4)c23)c1: “nuclear SOX9 intensity” 126 % of DMSO.

Study 6 — Structure (SMILES): NC(N)=NC(=O)c1nc(Cl)c(N2CCCCCC2)nc1N; read-out: β-arrestin recruitment; mode: agonist; technique: PRESTO-Tango; tested at: 10 µM; reference: untreated
G protein-coupled receptor 88 (Homo sapiens, UniProt Q9GZN0) — “fold over basal”: 1.
It gave 1.93 fold for “fold over basal” (HCRTR1 (Homo sapiens, UniProt O43613)).
PTGFR (Homo sapiens, UniProt P43088) — “fold over basal”: 0.56.
It gave 0.45 for “fold over basal” (P2Y purinoceptor 1 (P2RY1, Homo sapiens, UniProt P47900)).
The “fold over basal” was 0.83 (MC5R (Homo sapiens, UniProt P33032)).

Study 7 — mode: degrader; time: 24 h
SMILES: C[C@@H]1CN(c2ccc(-c3cc(C(=O)NCCOCCOCCOCCOCCNC(=O)Cn4cc(-c5[nH]cc(C(=O)N[C@@H](CC(N)=O)c6ccc(F)c(Cl)c6)c5-c5ccc(Cl)cc5F)cn4)ccc3F)cc2NC(=O)c2c[nH]c(=O)cc2C(F)(F)F)C[C@H](C)N1C
WDR5/DCAF1: WDR5/DCAF1 (Homo sapiens, UniProt P61964+Q9Y4B6)
The “remaining protein level” was 106% and 195% and 83.7% (WDR5 (Homo sapiens, UniProt P61964); Jess capillary immunoassay, item: WDR5 over vinculin; 10000 nM; reference: DMSO).
WDR5/DCAF1; HiBiT luminescence; 88.1 nM — “remaining protein level”: 94.9% and 89.9% and 83.4%.
For WDR5/DCAF1; HiBiT luminescence; 585 nM: “remaining protein level” read 64.3% and 69.5% and 70.7%.

For quick reference, copied from above (study 4):
The inhibition of C[C@@H](O)[C@H]1C(=O)N2C(C(=O)O)=C(S[C@@H]3CN[C@H](C(=O)N(C)C)C3)[C@H](C)[C@H]12 is reported as -20.1%.
With CCC(=O)O[C@]1(C(=O)CCl)[C@@H](C)C[C@H]2[C@@H]3CCC4=CC(=O)C=C[C@]4(C)[C@@]3(F)[C@@H](O)C[C@@]21C the inhibition was 5.5%.
For Cc1cn([C@H]2C[C@H](N=[N+]=[N-])[C@@H](CO)O2)c(=O)[nH]c1=O, the inhibition was -20.5%.
O=C(c1ccc(F)cc1)C1CCN(CCn2c(=S)[nH]c3ccccc3c2=O)CC1 gave an inhibition of 81.9%.
The inhibition of O=c1c(-c2ccccc2)c1-c1ccccc1 is reported as 60%.
CCCN(CCC)S(=O)(=O)c1ccc(C(=O)O)cc1 gave an inhibition of -26.8%.
